Results from different studies.
A part holds a random share of what one study measured.
UniProt O75676, sequence (whole entry, looked up): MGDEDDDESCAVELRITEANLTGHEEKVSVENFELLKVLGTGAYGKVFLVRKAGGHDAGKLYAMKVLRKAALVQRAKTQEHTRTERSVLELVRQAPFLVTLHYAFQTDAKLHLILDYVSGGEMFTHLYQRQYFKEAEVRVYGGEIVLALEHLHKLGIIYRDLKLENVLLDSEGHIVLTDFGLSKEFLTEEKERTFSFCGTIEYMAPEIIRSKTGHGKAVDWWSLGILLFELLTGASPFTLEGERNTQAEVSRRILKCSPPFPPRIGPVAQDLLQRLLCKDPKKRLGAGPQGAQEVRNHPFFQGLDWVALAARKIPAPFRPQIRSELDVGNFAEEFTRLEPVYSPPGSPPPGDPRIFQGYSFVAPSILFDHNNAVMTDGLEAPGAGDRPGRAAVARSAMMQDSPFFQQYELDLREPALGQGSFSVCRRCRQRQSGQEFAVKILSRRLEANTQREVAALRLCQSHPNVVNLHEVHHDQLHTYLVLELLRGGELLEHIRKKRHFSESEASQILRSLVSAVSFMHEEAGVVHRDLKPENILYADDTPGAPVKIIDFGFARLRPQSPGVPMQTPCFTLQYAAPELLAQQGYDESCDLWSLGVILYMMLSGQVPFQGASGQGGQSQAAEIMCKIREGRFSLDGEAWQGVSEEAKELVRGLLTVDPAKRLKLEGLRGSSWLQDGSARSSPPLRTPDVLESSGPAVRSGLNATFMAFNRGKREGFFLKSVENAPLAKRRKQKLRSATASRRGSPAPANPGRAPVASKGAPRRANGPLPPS
UniProt P10721, sequence (whole entry, unmodified, looked up): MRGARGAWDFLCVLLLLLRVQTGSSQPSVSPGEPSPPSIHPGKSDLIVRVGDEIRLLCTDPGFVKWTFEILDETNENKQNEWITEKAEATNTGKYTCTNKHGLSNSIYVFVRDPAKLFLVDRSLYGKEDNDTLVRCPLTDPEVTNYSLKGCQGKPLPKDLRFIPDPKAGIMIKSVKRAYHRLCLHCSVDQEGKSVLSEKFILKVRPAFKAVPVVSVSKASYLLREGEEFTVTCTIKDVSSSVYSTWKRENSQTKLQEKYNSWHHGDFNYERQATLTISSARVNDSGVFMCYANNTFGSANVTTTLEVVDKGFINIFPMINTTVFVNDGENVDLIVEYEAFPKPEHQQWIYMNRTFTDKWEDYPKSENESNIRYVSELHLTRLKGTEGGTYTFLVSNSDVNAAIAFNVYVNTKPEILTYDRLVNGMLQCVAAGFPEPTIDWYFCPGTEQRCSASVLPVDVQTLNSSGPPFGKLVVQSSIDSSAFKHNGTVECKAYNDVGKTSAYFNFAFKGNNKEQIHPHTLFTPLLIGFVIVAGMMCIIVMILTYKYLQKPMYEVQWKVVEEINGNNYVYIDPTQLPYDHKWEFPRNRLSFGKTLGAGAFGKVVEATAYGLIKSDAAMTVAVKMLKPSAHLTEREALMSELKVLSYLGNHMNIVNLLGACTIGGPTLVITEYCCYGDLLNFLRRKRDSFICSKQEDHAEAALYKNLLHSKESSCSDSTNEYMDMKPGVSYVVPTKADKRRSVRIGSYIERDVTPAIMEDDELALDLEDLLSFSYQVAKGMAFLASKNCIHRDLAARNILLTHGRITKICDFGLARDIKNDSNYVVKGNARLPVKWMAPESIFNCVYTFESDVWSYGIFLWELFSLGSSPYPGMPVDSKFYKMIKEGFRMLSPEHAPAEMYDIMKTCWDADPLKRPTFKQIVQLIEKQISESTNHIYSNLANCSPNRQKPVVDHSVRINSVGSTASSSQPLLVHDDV
UniProt P06493, sequence (whole entry, looked up): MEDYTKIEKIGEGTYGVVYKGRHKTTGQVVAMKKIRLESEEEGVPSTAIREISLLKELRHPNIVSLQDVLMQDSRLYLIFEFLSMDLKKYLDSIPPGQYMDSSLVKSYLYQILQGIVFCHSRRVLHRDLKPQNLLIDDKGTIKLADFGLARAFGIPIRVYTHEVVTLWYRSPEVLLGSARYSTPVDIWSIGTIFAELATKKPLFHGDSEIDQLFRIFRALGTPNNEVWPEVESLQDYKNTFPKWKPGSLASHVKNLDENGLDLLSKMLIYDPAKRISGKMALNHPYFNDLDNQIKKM

Series 1
Target: DNA polymerase theta, ATPase domain (POLQ, Homo sapiens, UniProt O75417)
UniProt O75417, sequence (whole entry, unmodified, looked up): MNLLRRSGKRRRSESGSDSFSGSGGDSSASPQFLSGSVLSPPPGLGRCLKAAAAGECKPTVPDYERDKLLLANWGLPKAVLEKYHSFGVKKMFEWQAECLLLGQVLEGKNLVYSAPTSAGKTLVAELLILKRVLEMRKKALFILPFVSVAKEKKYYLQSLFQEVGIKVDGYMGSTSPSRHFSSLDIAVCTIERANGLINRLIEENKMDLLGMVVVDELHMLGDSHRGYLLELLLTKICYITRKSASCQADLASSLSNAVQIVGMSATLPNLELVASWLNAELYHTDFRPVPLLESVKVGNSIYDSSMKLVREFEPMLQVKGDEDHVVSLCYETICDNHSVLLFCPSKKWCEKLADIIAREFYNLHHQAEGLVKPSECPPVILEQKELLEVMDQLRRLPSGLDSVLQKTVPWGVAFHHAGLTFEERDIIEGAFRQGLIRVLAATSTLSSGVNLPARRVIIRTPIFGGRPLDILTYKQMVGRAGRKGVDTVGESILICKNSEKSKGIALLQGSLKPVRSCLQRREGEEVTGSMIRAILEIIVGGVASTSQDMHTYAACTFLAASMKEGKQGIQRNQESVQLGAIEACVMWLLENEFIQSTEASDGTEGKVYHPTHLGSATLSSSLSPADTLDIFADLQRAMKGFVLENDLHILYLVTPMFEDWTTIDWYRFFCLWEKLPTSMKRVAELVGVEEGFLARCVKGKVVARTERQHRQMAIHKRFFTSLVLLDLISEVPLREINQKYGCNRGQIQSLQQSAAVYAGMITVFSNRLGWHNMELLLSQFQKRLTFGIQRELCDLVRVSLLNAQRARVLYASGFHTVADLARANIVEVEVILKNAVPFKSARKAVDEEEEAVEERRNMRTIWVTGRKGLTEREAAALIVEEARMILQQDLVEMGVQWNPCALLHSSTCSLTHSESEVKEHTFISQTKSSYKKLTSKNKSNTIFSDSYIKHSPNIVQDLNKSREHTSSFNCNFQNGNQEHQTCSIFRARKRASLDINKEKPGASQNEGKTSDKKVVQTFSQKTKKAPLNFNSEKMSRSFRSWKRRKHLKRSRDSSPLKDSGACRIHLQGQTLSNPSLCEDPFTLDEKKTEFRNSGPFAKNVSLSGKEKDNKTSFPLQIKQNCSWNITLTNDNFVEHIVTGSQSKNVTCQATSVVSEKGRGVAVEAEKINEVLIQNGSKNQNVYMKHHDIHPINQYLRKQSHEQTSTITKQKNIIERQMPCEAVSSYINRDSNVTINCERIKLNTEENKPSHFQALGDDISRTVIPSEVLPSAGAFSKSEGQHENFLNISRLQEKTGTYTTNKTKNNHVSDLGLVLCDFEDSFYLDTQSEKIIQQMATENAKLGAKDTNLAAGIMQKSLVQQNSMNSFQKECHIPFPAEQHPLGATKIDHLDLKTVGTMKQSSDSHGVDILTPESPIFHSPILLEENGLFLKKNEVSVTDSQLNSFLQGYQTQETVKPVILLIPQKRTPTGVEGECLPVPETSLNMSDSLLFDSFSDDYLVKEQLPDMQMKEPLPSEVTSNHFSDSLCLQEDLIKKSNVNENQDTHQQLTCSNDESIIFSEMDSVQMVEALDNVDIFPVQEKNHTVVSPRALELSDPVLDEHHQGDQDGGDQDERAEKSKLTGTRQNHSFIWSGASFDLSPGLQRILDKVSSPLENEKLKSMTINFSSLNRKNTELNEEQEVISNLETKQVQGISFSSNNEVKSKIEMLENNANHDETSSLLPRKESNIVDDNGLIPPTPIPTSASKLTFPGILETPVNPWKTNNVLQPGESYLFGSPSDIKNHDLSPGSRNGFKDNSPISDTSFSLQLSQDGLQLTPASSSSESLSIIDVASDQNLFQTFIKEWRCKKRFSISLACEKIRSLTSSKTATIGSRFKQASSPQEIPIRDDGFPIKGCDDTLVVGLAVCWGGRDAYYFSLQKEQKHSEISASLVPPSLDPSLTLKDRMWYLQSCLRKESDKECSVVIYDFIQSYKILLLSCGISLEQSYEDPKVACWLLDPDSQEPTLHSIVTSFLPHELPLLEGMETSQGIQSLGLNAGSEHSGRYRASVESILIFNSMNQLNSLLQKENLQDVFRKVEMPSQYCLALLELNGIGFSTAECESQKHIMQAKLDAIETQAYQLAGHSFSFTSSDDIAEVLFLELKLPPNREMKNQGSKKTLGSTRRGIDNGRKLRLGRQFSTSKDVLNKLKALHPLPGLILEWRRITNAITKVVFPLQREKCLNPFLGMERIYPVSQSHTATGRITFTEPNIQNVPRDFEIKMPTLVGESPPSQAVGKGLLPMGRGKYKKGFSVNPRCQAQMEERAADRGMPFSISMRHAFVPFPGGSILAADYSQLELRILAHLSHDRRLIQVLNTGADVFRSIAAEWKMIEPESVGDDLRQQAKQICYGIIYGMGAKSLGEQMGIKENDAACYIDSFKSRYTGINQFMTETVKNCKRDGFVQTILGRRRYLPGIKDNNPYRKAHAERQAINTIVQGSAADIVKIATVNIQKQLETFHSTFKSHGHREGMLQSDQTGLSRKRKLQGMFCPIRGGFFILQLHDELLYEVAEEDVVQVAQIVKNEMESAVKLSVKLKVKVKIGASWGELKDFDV
Effect on: enzyme activity
Action: inhibitor
Concentration: 77 µM
Baseline: untreated
With `CN(C)C/C=C/C(=O)Nc1cc2c(Nc3ccc(F)c(Cl)c3)ncnc2cc1O[C@H]1CCOC1` the remaining activity was 75.9%.
`CCCCOc1c(C(=O)c2c(F)cc(C)cc2F)c[nH]c2nncc1-2` gave a remaining activity of 100%.
`CC1(C)CCC=[N+]1[O-]` has a remaining activity of 103%.
`CSc1nc(-c2ccnc(NC(C)c3ccccc3)c2)c(-c2ccc(F)cc2)[nH]1` (centres unmarked) gave a remaining activity of 107%.
With `CNC1(C)C2CCC(C2)C1(C)C` (centres unmarked) the remaining activity was 100%.
With `COc1cc2c(cc1-c1c(C)noc1C)ncc1[nH]c(=O)n([C@H](C)c3ccccn3)c12` the remaining activity was 98%.
`COc1ccc2cccc(CCNC(C)=O)c2c1` gave a remaining activity of 107%.
With `Cc1cc(-c2ccccc2)nnc1NCCN1CCOCC1` the remaining activity was 99.1%.

Series 2
Structure (SMILES): O=C1NC(=O)c2c1c1c3ccccc3[nH]c1c1[nH]c3cc(Br)ccc3c21
Effect on: enzyme activity
Action: inhibitor
Concentration: 0.5 µM
Baseline: control
RAC-beta serine/threonine-protein kinase (AKT2, Homo sapiens, UniProt P31751) — remaining activity: 86.9%.
The remaining activity was 90.3% (Dual specificity mitogen-activated protein kinase kinase 1 (MAP2K1, Homo sapiens, UniProt Q02750)).
It gave 88.3% for remaining activity (Serine/threonine-protein kinase Nek3 (NEK3, Homo sapiens, UniProt P51956)).
For Cyclin-dependent kinase 9, with cyclin K (CDK9, Homo sapiens, UniProt P50750): remaining activity read 82.7%.
Tyrosine-protein kinase TXK (TXK, Homo sapiens, UniProt P42681) — remaining activity: 90.3%.
Calcium/calmodulin-dependent protein kinase type 1B (PNCK, Homo sapiens, UniProt Q6P2M8) — remaining activity: 99.4%.
The remaining activity was 29.7% (cGMP-dependent protein kinase 2 (PRKG2, Homo sapiens, UniProt Q13237)).
For Serine/threonine-protein kinase PAK 3 (PAK3, Homo sapiens, UniProt O75914): remaining activity read 97.7%.
It gave 93.6% for remaining activity (Mitogen-activated protein kinase 11 (MAPK11, Homo sapiens, UniProt Q15759)).
The remaining activity was 93.3% (Serine/threonine-protein kinase PLK3 (PLK3, Homo sapiens, UniProt Q9H4B4)).
Ribosomal protein S6 kinase alpha-4 (RPS6KA4, Homo sapiens, UniProt O75676) — remaining activity: 75.9%.
It gave 49.5% for remaining activity (Dual specificity protein kinase CLK4 (CLK4, Homo sapiens, UniProt Q9HAZ1)).
Cyclin-dependent kinase 1, with cyclin A (CDK1, Homo sapiens, UniProt P06493) — remaining activity: 91.9%.
For Rho-associated protein kinase 1 (ROCK1, Homo sapiens, UniProt Q13464): remaining activity read 93.9%.

Series 3
SMILES: Cn1nc(C(F)(F)F)cc1-c1cnc(N2CCc3cc(S(=O)(=O)Nc4c(F)cc(Cl)cc4F)cc(N4CCCC4=O)c32)nc1
Effect on: cell-free assay
Method: competition with immobilised ligand
Concentration: 1 µM
Ephrin type-B receptor 1 (EPHB1, Homo sapiens, UniProt P54762) — remaining binding: 100%.
For Mast/stem cell growth factor receptor Kit (KIT, Homo sapiens, UniProt P10721, D816V): remaining binding read 100%.
For Ribosomal protein S6 kinase alpha-4, C-terminal kinase domain (RPS6KA4, Homo sapiens, UniProt O75676): remaining binding read 85%.
For Tyrosine-protein kinase ABL1, non-phosphorylated (ABL1, Homo sapiens, UniProt P00519, H396P): remaining binding read 81%.
Phosphatidylinositol 4-phosphate 3-kinase C2 domain-containing subunit beta (PIK3C2B, Homo sapiens, UniProt O00750) — remaining binding: 99%.
The remaining binding was 99% (Tyrosine-protein kinase Yes (YES1, Homo sapiens, UniProt P07947)).
It gave 100% for remaining binding (Serine/threonine-protein kinase N1 (PKN1, Homo sapiens, UniProt Q16512)).
For Mast/stem cell growth factor receptor Kit (KIT, Homo sapiens, UniProt P10721): remaining binding read 94%.
Uncharacterized serine/threonine-protein kinase SBK3 (SBK3, Homo sapiens, UniProt P0C264) — remaining binding: 79%.

Series 4
Target: Beta-1 adrenergic receptor (ADRB1, Homo sapiens, UniProt P08588)
UniProt P08588, sequence (whole entry, looked up): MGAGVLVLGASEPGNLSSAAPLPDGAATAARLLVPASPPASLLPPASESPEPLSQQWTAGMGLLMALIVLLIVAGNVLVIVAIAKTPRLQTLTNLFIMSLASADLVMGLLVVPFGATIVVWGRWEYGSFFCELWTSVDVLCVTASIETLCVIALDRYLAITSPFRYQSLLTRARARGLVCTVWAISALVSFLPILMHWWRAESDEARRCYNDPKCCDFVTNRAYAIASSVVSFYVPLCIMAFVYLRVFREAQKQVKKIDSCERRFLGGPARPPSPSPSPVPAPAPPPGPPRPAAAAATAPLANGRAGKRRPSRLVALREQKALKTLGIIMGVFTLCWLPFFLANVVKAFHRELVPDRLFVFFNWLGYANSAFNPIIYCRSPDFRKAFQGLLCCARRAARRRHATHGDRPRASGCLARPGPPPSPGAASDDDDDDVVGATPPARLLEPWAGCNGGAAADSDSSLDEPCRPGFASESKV
Action: antagonist
`COc1ccccc1N1CCN(CCN2C(=O)NC(C)(C)C2=O)CC1` has an IC50 of no less than 100 µM.
With `CCN(Cc1cccs1)c1ncnc2ccc(-c3ccc4c(c3)OCO4)cc12` the IC50 was no less than 100 µM.
With `CN(C)Cc1cc(CC2(NCc3ccc(N(C)C)cc3)COC2)no1` the IC50 was no less than 100 µM.
`COc1ccc(Cc2nnc(SCc3cc(=O)oc4ccc5ccccc5c34)o2)cc1` has an IC50 of no less than 100 µM.
`Oc1cc2c(cc1O)C(c1ccccc1)CNCC2` (centres unmarked) gave an IC50 of no less than 100 µM.
With `CC(C)(C)NCC(O)COc1ccccc1-c1ccccc1` (centres unmarked) the IC50 was no less than 100 µM.
The IC50 of `O=C1NCCCc2[nH]c(-c3cnn(-c4cccc(F)c4)c3)nc21` is reported as no less than 100 µM.
`COc1ccc(-c2cc(N3CCCC3)nc(N)n2)c2ccc(C)nc12` has an IC50 of no less than 100 µM.
The IC50 of `COc1ccc(-c2ccc(Cn3ccnc3)cn2)c2ccc(C)nc12` is reported as no less than 100 µM.
`CCN1CC(C(=O)NCC2CCN(c3ccccc3OC)C2)CC1=O` (centres unmarked) has an IC50 of no less than 100 µM.

Some of these lines once more (series 1):
`CC1(C)CCC=[N+]1[O-]` has a remaining activity of 103%.
`CSc1nc(-c2ccnc(NC(C)c3ccccc3)c2)c(-c2ccc(F)cc2)[nH]1` (centres unmarked) gave a remaining activity of 107%.
With `CNC1(C)C2CCC(C2)C1(C)C` (centres unmarked) the remaining activity was 100%.
With `COc1cc2c(cc1-c1c(C)noc1C)ncc1[nH]c(=O)n([C@H](C)c3ccccn3)c12` the remaining activity was 98%.
`COc1ccc2cccc(CCNC(C)=O)c2c1` gave a remaining activity of 107%.
With `Cc1cc(-c2ccccc2)nnc1NCCN1CCOCC1` the remaining activity was 99.1%.
